{"data": "Results pooled from the literature", "organism": "Leishmania infantum", "note": "± marks the error that the study gave."}
{"Compound": "Cc1ncnc2c1c(CCc1ccccc1)cn2[C@@H]1O[C@H](CO)[C@@H](O)[C@H]1O", "assay": "parasite growth, imaging", "system": "mouse Macrophage", "setting": "5 days, intracellular, amastigote", "measurement": "EC50", "result": "> 64 µM"}
{"Compound": "COC(=O)c1c(C)ncn1CC(c1cn(C)c2ccccc12)c1cn(C)c2ccccc12", "assay": "viability, MTS", "system": "human clinical isolate promastigote", "setting": "72 h", "measurement": "IC50", "result": "5.5 µM"}
{"Compound": "CCc1cn([C@@H]2O[C@H](CO)[C@@H](O)[C@H]2O)c2ncnc(OC)c12", "assay": "parasite growth, imaging", "system": "mouse Macrophage", "setting": "5 days, intracellular, amastigote", "measurement": "EC50", "result": "> 64 µM"}
{"Compound": "C/C=C(\\C)C(=O)NCc1ccc2c(c1)C(=O)CC(C)(C)N2", "system": "bone marrow-derived macrophages, intracellular amastigotes", "setting": "24 h", "measurement": "IC50", "result": "> 10 µM"}
{"Compound": "c1cnc(NCCCn2ccnc2)cn1", "system": "J774.2 macrophages", "setting": "IC25, 240 h, day 10", "how to read": "relative to: untreated", "measurement": "infection inhibition", "result": "44%"}
{"Compound": "CCOC(=O)c1c(C#N)c(-c2c[nH]c3ccccc23)n(N)c1C", "assay": "parasite growth", "setting": "20 µM, 72 h, promastigote", "measurement": "inhibition", "result": "-49.8%"}
{"Compound": "c1ccc2c(Cc3c[nH]c4ccccc34)c[nH]c2c1", "assay": "viability, MTS", "system": "human clinical isolate, promastigote", "setting": "20 µM, 72 h", "measurement": "inhibition", "result": "22%"}
{"Compound": "C/C=C/C(=O)NCc1ccc2c(c1)C(=O)CC(C)(C)N2", "system": "bone marrow-derived macrophages, intracellular amastigotes", "setting": "24 h", "measurement": "IC50", "result": "> 10 µM"}
{"Compound": "O=C(O)c1ccc(-c2cc3cccc([N+](=O)[O-])c3[nH]c2=O)cc1", "system": "axenic amastigotes", "setting": "48 h", "measurement": "IC50", "result": "inactive"}
{"Compound": "Cc1ncnc2c1c(F)cn2[C@@H]1O[C@H](CO)[C@@H](O)[C@H]1O", "assay": "parasite growth, imaging", "system": "mouse Macrophage", "setting": "5 days, intracellular, amastigote", "measurement": "EC50", "result": "< 0.25 µM"}
{"Compound": "O=C(CN1C(=O)Cc2c([nH]c3ccc(Br)cc23)-c2ccc(Cl)cc21)N1CCNCC1", "assay": "parasite growth", "system": "J774", "setting": "24 h, intracellular, amastigote", "measurement": "EC50", "result": "0.9 µM"}
{"Compound": "CCCCCc1cn([C@@H]2O[C@H](CO)[C@@H](O)[C@H]2O)c2ncnc(C)c12", "assay": "parasite growth, imaging", "system": "mouse Macrophage", "setting": "5 days, intracellular, amastigote", "measurement": "EC50", "result": "> 64 µM"}
{"Compound": "CCCCCCCCCCCCCCCCOP(=O)([O-])OCC[N+](C)(C)C", "system": "intracellular amastigotes, ex vivo mouse splenic explants", "setting": "72 h", "measurement": "EC50", "result": "2.4 ± 0.21 µM"}
{"Compound": "CCc1ncn(CC(c2c[nH]c3ccc(C)cc23)c2c[nH]c3ccc(C)cc23)c1C(=O)OC", "assay": "viability, MTS", "system": "human clinical isolate promastigote", "setting": "72 h", "measurement": "IC50", "result": "8.6 µM"}
{"Compound": "Cc1ncnc2c1c(C#CC(C)C)cn2[C@@H]1O[C@H](CO)[C@@H](O)[C@H]1O", "assay": "parasite growth, imaging", "system": "mouse Macrophage", "setting": "5 days, intracellular, amastigote", "measurement": "EC50", "result": "> 64 µM"}
{"Compound": "CC(C)=CC(=O)NCc1ccc2c(c1)C(=O)CC(C)(C)N2", "system": "bone marrow-derived macrophages, intracellular amastigotes", "setting": "24 h", "measurement": "IC50", "result": "> 10 µM"}
{"Compound": "COC(=O)c1c(C)ncn1CC(c1c[nH]c2ccc(C)cc12)c1c[nH]c2ccc(C)cc12", "assay": "viability, MTS", "system": "human clinical isolate promastigote", "setting": "72 h", "measurement": "IC50", "result": "6.1 µM"}
{"note": "Excerpt of the above:"}
{"Compound": "COC(=O)c1c(C)ncn1CC(c1c[nH]c2ccc(C)cc12)c1c[nH]c2ccc(C)cc12", "assay": "viability, MTS", "system": "human clinical isolate promastigote", "setting": "72 h", "measurement": "IC50", "result": "6.1 µM"}
{"Compound": "c1cnc(NCCCn2ccnc2)cn1", "system": "J774.2 macrophages", "setting": "IC25, 240 h, day 10", "how to read": "relative to: untreated", "measurement": "infection inhibition", "result": "44%"}
